Measured values from different studies.
Every numbered part comes from another study and shows a few of its results, in no order.

Block 1
Target: Prothrombin, mature alpha-thrombin (F2, Homo sapiens, UniProt P00734)
Method: aptamer microarray, sandwich
Form: DNA with 2'F-ANA
Matrix: in vitro
Tested at: 200 nM
Setting: whole 15-mer aptamer, many near background
Together with: Cy3 exosite-II aptamer, 400 nM
Direction: higher = stronger binding
Sequence: GGTTGGTGTGGTTGG
Modification | mean fluorescence intensity [a.u.]
2'F-ANA at 3 9 10 11 12 13 15 | 538
2'F-ANA at 1 2 4 5 9 12 13 14 | 47.7
2'F-ANA at 3 6 7 8 9 10 11 15 | 465
2'F-ANA at 2 3 5 7 9 11 12 13 14 | 55.1
2'F-ANA at 3 5 7 8 10 11 12 14 | 54.1
2'F-ANA at 3 4 6 7 9 11 12 13 14 | 254
2'F-ANA at 1 3 5 8 12 14 15 | 45.5
2'F-ANA at 1 2 3 4 5 7 8 9 10 13 14 | 51.4
2'F-ANA at 1 2 4 7 8 9 11 12 13 14 | 59.1
2'F-ANA at 3 4 6 7 9 11 12 13 | 733
2'F-ANA at 1 2 6 8 9 13 14 | 51.5
2'F-ANA at 5 7 9 14 15 | 68.4
2'F-ANA at 1 2 5 6 10 | 47.4
2'F-ANA at 2 4 6 7 8 10 11 13 15 | 64.3
2'F-ANA at 1 2 5 7 9 10 12 13 15 | 49.5
2'F-ANA at 2 5 6 11 12 14 | 50
2'F-ANA at 2 7 8 11 15 | 446
2'F-ANA at 1 2 3 4 5 6 7 8 9 13 14 | 49.9
2'F-ANA at 2 3 8 10 12 14 15 | 271
2'F-ANA at 1 2 6 9 11 13 15 | 87.1
2'F-ANA at 1 2 3 4 5 6 8 11 | 56.1
2'F-ANA at 2 3 6 7 10 11 12 | 373
2'F-ANA at 2 4 8 9 11 12 13 14 | 106
2'F-ANA at 2 5 8 9 10 12 13 14 | 51.9
2'F-ANA at 1 3 4 6 7 11 | 159

Block 2
Target: Interferon regulatory factor 3, full length, phosphomimetic (IRF3, Homo sapiens, UniProt Q14653, residues 1-427, S386D/S396D/S398D/S402D/T404D/S405D)
Method: protein-binding microarray
Form: double-stranded DNA, one strand shown
Matrix: in vitro
Tested at: 2540 nM top
Setting: 60-bp whole probe
Together with: salmon DNA 0.4 mg/ml
Reference: random background probes
Direction: higher = stronger binding
Shared flanks, not repeated: GCCTAGCAC … GTCTTGATTCGCTTGACGCTGCTG
Target sequence (chain): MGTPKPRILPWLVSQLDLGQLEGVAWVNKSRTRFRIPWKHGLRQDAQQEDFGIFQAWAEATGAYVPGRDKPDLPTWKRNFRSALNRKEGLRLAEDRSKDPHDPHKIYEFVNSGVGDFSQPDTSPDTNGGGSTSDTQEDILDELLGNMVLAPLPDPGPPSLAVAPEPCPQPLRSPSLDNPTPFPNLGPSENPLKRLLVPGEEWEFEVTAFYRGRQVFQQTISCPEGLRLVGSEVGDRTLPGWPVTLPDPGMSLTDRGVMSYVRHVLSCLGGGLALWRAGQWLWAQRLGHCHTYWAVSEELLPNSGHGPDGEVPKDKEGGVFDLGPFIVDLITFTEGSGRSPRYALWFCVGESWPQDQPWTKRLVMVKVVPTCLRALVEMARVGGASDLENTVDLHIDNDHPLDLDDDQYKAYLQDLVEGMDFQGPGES
Sequence | fitted relative affinity
TAATGGATATATATCATTTAGTGCTAG | 0.675 z-score
GACGGTGTCGGGACTGGGGACGTGCTA | 0.714 z-score
TTAGATATCAGACGGGATTAGTGCTAG | -0.269 z-score
TCCCACAGTCGAAAGTCTGCGTGCTAG | -0.192 z-score
TTAGATTTCAGACTGGATTCGTGCTAG | 0.582 z-score
TCAGATTTATCAAATGTGACTGTGCTA | 0.115 z-score
GCCGGTCTCCTTTTCCTGACGTGCTAG | 5.46 z-score
TCAAACTTGTGTTTGTCACTGTGCTAG | -0.262 z-score
TTAGAACTGGAGTATCGATTAGTGCTA | -0.273 z-score
GACGGTATCCTACTACTGACGTGCTAG | 3.4 z-score
TTTCCTTTGCCTCTGAGGCTGTGCTAG | 6.4 z-score
GACGGACTAGGGTTTCGGGACGTGCTA | 0.821 z-score
TTAGGTATAGGTTTCGGTTAGTGCTAG | 4.33 z-score
CTGACCTTTTCCTGAGGCAGGTGCTAG | 2.74 z-score
TTACATATCAGTATCGATTAGTGCTAG | 2.01 z-score
GACGAACTCGGGTTTCGAGACGTGCTA | 0.594 z-score
GACTATATCAGTTTCGAGACGTGCTAG | 3.24 z-score
TGGGGTTCACTCCGGTACCCGTGCTAG | -0.844 z-score
AAAGATTTACAAACTGTGAGGGTGCTA | -0.118 z-score
GACGATAGCGGGACTGGAGACGTGCTA | -0.708 z-score
GACGGAGTGGACTATCGGGACGTGCTA | -0.626 z-score
TCACATTTTGGTTTTCCACTGTGCTAG | 1.81 z-score
GACGGACTGGACTTGCGGGACGTGCTA | -0.502 z-score
TCATCTCTGCTTGTATCACTGTGCTAG | 1.22 z-score
GACGGACTGGACACTGGGTACGTGCTA | -0.657 z-score

Block 3
Target: Ras GTPase-activating protein-binding protein 1, C-terminal RGG region (G3BP1, Homo sapiens, UniProt Q13283)
Sequence of UniProt Q13283 (whole entry, looked up): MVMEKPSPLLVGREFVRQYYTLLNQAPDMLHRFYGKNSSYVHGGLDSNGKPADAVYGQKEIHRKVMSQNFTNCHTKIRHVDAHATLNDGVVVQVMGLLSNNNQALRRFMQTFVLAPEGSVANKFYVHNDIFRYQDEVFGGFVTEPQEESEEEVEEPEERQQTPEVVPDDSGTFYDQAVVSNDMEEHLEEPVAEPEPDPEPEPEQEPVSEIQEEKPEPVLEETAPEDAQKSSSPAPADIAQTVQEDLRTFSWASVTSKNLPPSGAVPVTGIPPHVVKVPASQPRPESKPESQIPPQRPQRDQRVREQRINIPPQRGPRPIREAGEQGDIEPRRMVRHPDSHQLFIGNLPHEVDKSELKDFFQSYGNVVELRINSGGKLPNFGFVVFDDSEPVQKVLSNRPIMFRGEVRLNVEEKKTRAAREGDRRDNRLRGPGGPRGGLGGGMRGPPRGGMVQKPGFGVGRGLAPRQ
Method: RNA Bind-n-Seq
Form: RNA
Matrix: in vitro
Tested at: 1 µM
Setting: whole 134-nt RNA, ends assumed
Together with: 150 mM KCl
Reference: input library
Direction: higher = stronger binding
Shared flanks, not repeated: GGGAGUUCUACAGUCCGACGAUC … UGGAAUUCUCGGGUGUCAAGG
Sequence | log2 enrichment
UCAAGUCCUGUGCUACACAUCGUAUGUACCGAAUCGGGAAAGGAAAGGGGAAAGGAAAGUAUUAUGUUACGCCGUUCGGAUCUGCACUUC | -1.54
UUCAUUCUUACUUUGAAUCUAGGAUUUUAUGGAAGACCUUGGGUUAUGGAACAGAGAAAAGAACUCUUUAGAAGGUAAAUCUUCAUUAUA | -2.29
UGUGCUACACAUCGUAUGUACCGAAUCGGGGCCCCCCCGGGCCCCCCCGGGGCCCCCCCGGGGAAAGUAUUAUGUUACGCCGUUCGGAUC | -2.69
CACAGACAACACGCACCCACACAGACACAGAGGGAAGGGGUUGGGAUGGGGACAGGGUGCACAGCAGGGCGGGGUUGGACCCCAGCCCCU | -1.3
CUGUGCUACACAUCGUAUGUACCGAAUCGGCCCCCCCGGCCCCCCCGGGGCCCCCCCGGGGAAAGUAUUAUGUUACGCCGUUCGGAUCUG | -2.16
GUCCUGUGCUACACAUCGUAUGUACCGAAUCGGCCCCCGGCCCCCGGGGCCCCCGGGGAAAGUAUUAUGUUACGCCGUUCGGAUCUGCAC | -1.29
CACAGACUACACGCACCCACACAGACACAGAGGGAAGGGGUUGGGAUGGGGACAGGGUGCACAGCAGGGCGGGGUAGGACCCCAGCCCCU | -0.309
AAGUCCUGUGCUACACAUCGUAUGUACCGAAUCGGGGUUUGGGGUUUGGGGUGGGGAAAGUAUUAUGUUACGCCGUUCGGAUCUGCACUU | 2.88
UCCUGUGCUACACAUCGUAUGUACCGAAUCGGGUUUUUUGGGUUUUUUGGGUUUUUUGGGAAAGUAUUAUGUUACGCCGUUCGGAUCUGC | -0.363
GUCCUGUGCUACACAUCGUAUGUACCGAAUCGGGAAAGGGAAAAAAAGGGAAAAAGGGAAAGUAUUAUGUUACGCCGUUCGGAUCUGCAC | -0.401
CAAGUCCUGUGCUACACAUCGUAUGUACCGAAUCGGAGGUUUUUUUGGUUUUUGGAAAGUAUUAUGUUACGCCGUUCGGAUCUGCACUUC | -1.91
AAGUCCUGUGCUACACAUCGUAUGUACCGAAUCGGUGGUUUUUUUGGAAAAAAAGGAAAGUAUUAUGUUACGCCGUUCGGAUCUGCACUU | -2.06
AGUUACGGUAGCAGUUCUCAGAGCAGCAGCUAUGGGCAGCCCCAGAGUGGGAGCUACAGCCAGCAGCCUAGCUAUGGUGGACAGCAGCAA | -1.96
UUCCUCAAGUCCUGUGCUACACAUCGUAUGUACCGAAUCGGAGGGAGGAGGAAAGUAUUAUGUUACGCCGUUCGGAUCUGCACUUCCAGC | -1.26

Block 4
Target: Histone acetyltransferase KAT6A, both winged helices, GST fusion (KAT6A, Homo sapiens, UniProt Q92794, residues 1-181)
Method: protein binding microarray
Form: double-stranded DNA, one strand shown
Matrix: in vitro
Tested at: not given
Setting: 8-mer, flanks averaged, mean of 2 arrays, mostly near background
Reference: not given
Direction: higher = stronger binding
Target sequence (chain): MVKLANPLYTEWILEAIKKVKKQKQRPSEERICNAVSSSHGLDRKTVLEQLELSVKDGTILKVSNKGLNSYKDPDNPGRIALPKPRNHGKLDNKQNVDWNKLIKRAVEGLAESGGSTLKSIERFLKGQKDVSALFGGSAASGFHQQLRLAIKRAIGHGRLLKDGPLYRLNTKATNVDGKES
Sequence | E-score
ACCGAGGA | -0.0993
CGATCGTA | 0.0564
TCATTAGA | -0.0362
AGGCGCCC | 0.16
AAGCGACA | 0.0597
AAGCATCG | -0.0218
AACAAACG | 0.0593
CTCTAGGA | -0.169
GCAGTAAA | -0.0736
TGTAACAA | -0.144
CCCTTGCC | -0.0744
ATCGTCGC | 0.0933
AAAGCAAA | -0.093
GCGCAAAA | 0.268
ATTCCGAG | 0.00217
GCTTAGGA | -0.153
CCCATGAG | -0.104
